Measured values collected from several papers.
Values joined by “and” are separate records of one study, mostly repeats; a detail may differ. ± gives the spread as reported.

C[C@]12CC[C@H](OCC[18F])C[C@H]1CC[C@@H]1[C@@H]2CC[C@]2(C)[C@@H](c3ccc(=O)oc3)CC[C@]12O
tracer uptake (SMMC-7721 tumour model; nude, tumour; intravenous, 7.4 MBq, 55 min, tumour-bearing): 4.7 %ID/g

COc1ccc(CNc2nc(N3CCC[C@H]3CO)ncc2C(=O)NN)cc1Cl
revertant count (Salmonella typhimurium; TA98; 1000 µg/plate, 48 h, with: rat liver S9): 36 ± 4

CN[C@](C)(C[18F])C(=O)O
tracer uptake (DU-145 tumour model; host not given, pancreas; 30 min, tumour-bearing): 45 %ID/g

Cl.Cl.Cl.Cl.Cl.Cl.Cl.Cl.Cl.Cl.Cl.Cl.NC[C@@H]1O[C@H](O[C@H]2[C@@H](O)[C@H](O[C@@H]3[C@@H](O)[C@H](N)C[C@H](N)[C@H]3O[C@H]3O[C@H](CN)[C@@H](O)[C@H](O)[C@H]3N)O[C@@H]2Cn2cc(CCCc3cn(C[C@H]4O[C@@H](O[C@@H]5[C@@H](O)[C@H](N)C[C@H](N)[C@H]5O[C@H]5O[C@H](CN)[C@@H](O)[C@H](O)[C@H]5N)[C@H](O)[C@@H]4O[C@H]4O[C@@H](CN)[C@@H](O)[C@H](O)[C@H]4N)nn3)nn2)[C@H](N)[C@@H](O)[C@@H]1O
CT5 (MT-2; cytotoxicity): > 138 µM

CCC(=O)N(C)c1ccc(Cl)c(Cl)c1
revertant colonies (Salmonella typhimurium; Ames test; TA100; 1.00 mg/plate, without S9): 38 ± 20.2 revertants/plate

C[C@@](O)(C(F)F)[C@H](NC(=O)c1ccc(C#CC#CC2CC2)cc1)C(=O)NO
AUC(0-inf) (CD-1 mouse; oral, 40 mg/kg, not fasted): 5800 ± 2500 ng·h/mL

Cc1nc([C@H](NC(=O)c2ccc(-c3ccc(Cl)cc3)[nH]2)[C@@H]2CCCCN2)sc1CO
CC50 (MT2; cell growth or viability, XTT): ~25 µM

COc1ccc(CNc2nc(N3CCC[C@H]3CO)ncc2C(=O)NNC(=O)c2cnc(N3CCC[C@H]3CO)nc2NCc2ccc(OC)c(Cl)c2)cc1Cl
revertant count (Salmonella typhimurium; TA102; 500 µg/plate): 235 ± 13

CCCCn1cc(C(=O)O)c(=O)c2cc(F)c3c(nnn3-c3ccccc3Cl)c21
IC50 (HT-29; cell growth or viability, SRB): 222 µM

CCCCCC(=O)NCC(=O)N[C@@H](CC(C)C)C(=O)N[C@@H](CC(C)C)C(=O)N[C@@H](CCCCN)C(=O)N[C@@H](CCCNC(=N)N)C(=O)N[C@H](C(=O)N[C@@H](CCCCN)C(=O)N[C@H](C(=O)N[C@@H](CC(C)C)C(=O)N[C@@H](CC(C)C)C(=O)NCCCC[C@H](NC(=O)[C@H](CC(C)C)NC(=O)[C@H](CC(C)C)NC(=O)[C@@H](NC(=O)[C@H](CCCCN)NC(=O)[C@@H](NC(=O)[C@H](CCCNC(=N)N)NC(=O)[C@H](CCCCN)NC(=O)[C@H](CC(C)C)NC(=O)[C@H](CC(C)C)NC(=O)CNC(=O)CCCCC)[C@@H](C)CC)[C@@H](C)O)C(=O)NCCCC[C@H](NC(=O)[C@H](CCCCNC(=O)[C@H](CC(C)C)NC(=O)[C@H](CC(C)C)NC(=O)[C@@H](NC(=O)[C@H](CCCCN)NC(=O)[C@@H](NC(=O)[C@H](CCCNC(=N)N)NC(=O)[C@H](CCCCN)NC(=O)[C@H](CC(C)C)NC(=O)[C@H](CC(C)C)NC(=O)CNC(=O)CCCCC)[C@@H](C)CC)[C@@H](C)O)NC(=O)[C@H](CC(C)C)NC(=O)[C@H](CC(C)C)NC(=O)[C@@H](NC(=O)[C@H](CCCCN)NC(=O)[C@@H](NC(=O)[C@H](CCCNC(=N)N)NC(=O)[C@H](CCCCN)NC(=O)[C@H](CC(C)C)NC(=O)[C@H](CC(C)C)NC(=O)CNC(=O)CCCCC)[C@@H](C)CC)[C@@H](C)O)C(N)=O)[C@@H](C)O)[C@@H](C)CC
minimum haemolytic concentration (human erythrocytes; 1 h, 37 °C, 10% haemolysis): 10.9 µM

CN(C)CC1CCCCC1(O)c1cccc(O)c1 (centres unmarked)
efflux ratio (P-glycoprotein; Caco-2 TC7; 10 µM, 3 h, pH 6.8 apical, 7.4 basolateral, with: cyclosporin A 10 µM): 2.2

CCCCCCCC/C=C\CCCCCCCCOP(O)(O)=S.N
AUC(0-inf) (mouse, female, nonirradiated; sc, dose not given): 1150 ng·h/mL

CCCCCCCC(=O)NCC(=O)N[C@@H](CC(C)C)C(=O)N[C@@H](CC(C)C)C(=O)N[C@@H](CCCCN)C(=O)N[C@@H](CCCNC(=N)N)C(=O)N[C@H](C(=O)N[C@@H](CCCCN)C(=O)N[C@H](C(=O)N[C@@H](CC(C)C)C(=O)N[C@@H](CC(C)C)C(=O)NCCCC[C@H](NC(=O)[C@H](CC(C)C)NC(=O)[C@H](CC(C)C)NC(=O)[C@@H](NC(=O)[C@H](CCCCN)NC(=O)[C@@H](NC(=O)[C@H](CCCNC(=N)N)NC(=O)[C@H](CCCCN)NC(=O)[C@H](CC(C)C)NC(=O)[C@H](CC(C)C)NC(=O)CNC(=O)CCCCCCC)[C@@H](C)CC)[C@@H](C)O)C(N)=O)[C@@H](C)O)[C@@H](C)CC
minimum haemolytic concentration (human erythrocytes; 1 h, 37 °C, 10% haemolysis): 5.67 µM

O=C(O)CCC(NP(=O)(O)OCCC[C@@H](NC(=O)CCC(NC(=O)CCCCCNC(=O)CCCCCNC(=O)c1ccc([18F])cc1)C(=O)O)C(=O)O)C(=O)O (some centres unmarked)
tracer uptake (CWR22Rv1 tumour model; host not given, blood; intravenous, 2 h, tumour-bearing): 0.03 %ID/g

CCCCCCCCCCCCC(=O)O.O=C1CCCC2C3CCCN4CCCC(CN12)C34 (centres unmarked)
log octanol-water partition coefficient (shake-flask; simulated intestinal fluid; pH 6.8, 37 °C): 0.26

CC[C@H](C)C(=O)N1CCC(NC(=O)Nc2ccc(OC(F)(F)F)c(F)c2)CC1
subjects with any AE (healthy volunteers; oral, 16 mg single dose, 14 (unit not given)): 100%

CCCCCC(=O)NCC(=O)N[C@@H](CC(C)C)C(=O)N[C@@H](CC(C)C)C(=O)N[C@@H](CCCCN)C(=O)N[C@@H](CCCNC(=N)N)C(=O)N[C@H](C(=O)N[C@@H](CCCCN)C(=O)N[C@H](C(=O)N[C@@H](CC(C)C)C(=O)N[C@@H](CC(C)C)C(N)=O)[C@@H](C)O)[C@@H](C)CC
minimum haemolytic concentration (human erythrocytes; 1 h, 37 °C, 10% haemolysis): > 256 µM

O=C(O)CCC(NP(=O)(O)OCCC[C@@H](NC(=O)CCC(NC(=O)CCCCCNC(=O)c1ccc([18F])cc1)C(=O)O)C(=O)O)C(=O)O (some centres unmarked)
tracer uptake (CWR22Rv1 tumour model; host not given, liver; intravenous, 2 h, tumour-bearing): 0.29 %ID/g

CC[C@H](C)[C@H](NC(=O)[C@H](CCCNC(=N)N)NC(=O)[C@H](CCCCN)NC(=O)[C@H](CC(C)C)NC(=O)[C@H](CC(C)C)NC(=O)CN)C(=O)N[C@@H](CCCCN)C(=O)N[C@H](C(=O)N[C@@H](CC(C)C)C(=O)N[C@@H](CC(C)C)C(=O)NCCCC[C@H](NC(=O)[C@H](CC(C)C)NC(=O)[C@H](CC(C)C)NC(=O)[C@@H](NC(=O)[C@H](CCCCN)NC(=O)[C@@H](NC(=O)[C@H](CCCNC(=N)N)NC(=O)[C@H](CCCCN)NC(=O)[C@H](CC(C)C)NC(=O)[C@H](CC(C)C)NC(=O)CN)[C@@H](C)CC)[C@@H](C)O)C(N)=O)[C@@H](C)O
minimum haemolytic concentration (human erythrocytes; 1 h, 37 °C, 10% haemolysis): 51.2 µM

COc1cc(C(=O)NCCOCCOCCOCCNC(=O)c2ccc([18F])nc2)ccc1NC(=O)C1NC(CC(C)(C)C)C(C#N)(c2ccc(Cl)cc2F)C1c1cccc(Cl)c1F (centres unmarked)
tracer uptake (HepG2 tumour model; host not given, blood; 2 h, tumour-bearing): 0.83 %ID/g and < 1 %ID/g

Excerpt of the above:
CN[C@](C)(C[18F])C(=O)O
tracer uptake (DU-145 tumour model; host not given, pancreas; 30 min, tumour-bearing): 45 %ID/g

Cl.Cl.Cl.Cl.Cl.Cl.Cl.Cl.Cl.Cl.Cl.Cl.NC[C@@H]1O[C@H](O[C@H]2[C@@H](O)[C@H](O[C@@H]3[C@@H](O)[C@H](N)C[C@H](N)[C@H]3O[C@H]3O[C@H](CN)[C@@H](O)[C@H](O)[C@H]3N)O[C@@H]2Cn2cc(CCCc3cn(C[C@H]4O[C@@H](O[C@@H]5[C@@H](O)[C@H](N)C[C@H](N)[C@H]5O[C@H]5O[C@H](CN)[C@@H](O)[C@H](O)[C@H]5N)[C@H](O)[C@@H]4O[C@H]4O[C@@H](CN)[C@@H](O)[C@H](O)[C@H]4N)nn3)nn2)[C@H](N)[C@@H](O)[C@@H]1O
CT5 (MT-2; cytotoxicity): > 138 µM

CCC(=O)N(C)c1ccc(Cl)c(Cl)c1
revertant colonies (Salmonella typhimurium; Ames test; TA100; 1.00 mg/plate, without S9): 38 ± 20.2 revertants/plate
